# Assay results of several laboratories.
# Each numbered part is a random draw from the data of one study; scales do not carry over between parts. Substitutions count along the parent as printed.

# Block 1 — target: CEP164, C-terminal peptide (human); technique: DHFR complementation, deep sequencing; sample: yeast; relative to: wild type; direction: higher = weaker binding
# Notes: single substitutions, model-inferred values
# Starting sequence: PDZK1, PDZ domain 2 (human); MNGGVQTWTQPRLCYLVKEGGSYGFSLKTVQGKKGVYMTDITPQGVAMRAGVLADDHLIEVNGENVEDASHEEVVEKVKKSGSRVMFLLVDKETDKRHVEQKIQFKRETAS; partner HNRVKVYRF
Variant,binding free energy change
E60A,-0.194 kcal/mol
N2P,-0.163 kcal/mol
V66L,0.273 kcal/mol
G45A,1.29 kcal/mol
G24T,1.16 kcal/mol
K92V,-0.1 kcal/mol
T9W,0.114 kcal/mol
D40C,0.693 kcal/mol

# Block 2 — technique: RNA Bind-n-Seq; molecule type: RNA; sample: in vitro; concentration: 200 nM; notes: whole 134-nt RNA, ends assumed; with: 150 mM KCl; relative to: input library; direction: higher = stronger binding
# Target: Fragile X messenger ribonucleoprotein 1, C-terminal low-complexity region (Fmr1, Mus musculus, UniProt P35922)
# Constant ends, left off below: GGGAGUUCUACAGUCCGACGAUC … UGGAAUUCUCGGGUGUCAAGG
Oligonucleotide,log2 enrichment
UAACUUUAGAGGAGGAUCUGAUGGAUCUGGCAGUGGACGUGGAUUUGGGGAUGGCUAUAAUGGGUAUGGAGGAGGACCUGGAGGUGGCAA,0.384
AAGUCCUGUGCUACACAUCGUAUGUACCGAAUCGGGGAAAGGGGUUUGGGGUGGGGAAAGUAUUAUGUUACGCCGUUCGGAUCUGCACUU,0.981
GUCCUGUGCUACACAUCGUAUGUACCGAAUCGGGGUUUUUGGGGAAAGGGGAAAGGGGAAAGUAUUAUGUUACGCCGUUCGGAUCUGCAC,0.333
CCUCAAGUCCUGUGCUACACAUCGUAUGUACCGAAUCGGUGGAGGAAAAAGGAAAGUAUUAUGUUACGCCGUUCGGAUCUGCACUUCCAG,0.106
CCUGUGCUACACAUCGUAUGUACCGAAUCGGGGCCCCCCGGGGCCCCCCGGGGCCCCCCGGAAAGUAUUAUGUUACGCCGUUCGGAUCUG,-1.17
UCAAGUCCUGUGCUACACAUCGUAUGUACCGAAUCGGGCCCGGCCCGGGGCCCGGAAAGUAUUAUGUUACGCCGUUCGGAUCUGCACUUC,-0.557
UAACUUUAGAGGAGGAUCUGGUGGAUAUGGCAGUGGACGUGGAUUUGGGGAUGGCUAUAAUGGGUAUGGAGGAGGACCUGGAGGUGGCAA,0.375
UGGCCCUGGUGGCAUGCGGGGAGGAAGAGGUGGCCUCAUGGAUCGUGGUGGUCCCGGUGGAAUGUUCAGUGGUGGCCGUGGUGGAGACAG,0.153

# Block 3 — target: CCNE2, cyclin fold, Cln2 fusion (human); technique: yeast growth competition, sequencing; sample: yeast; notes: strong parent motif; relative to: not given; direction: higher = stronger binding; starting sequence: viral docking peptide; TSVRRALFTGGSD
Variant,normalised enrichment score
R5A L7A,-0.0973
A6F,0.794
G11K,3.41
T9F,3.83
R4E,0.138
G11E,4.33
G10H,2.97
F8L,0.319
R4A,1.06
A6G,0.874
A6P,0.271
R5F,0.275
S12P,4.14
G11A,3.87
R5S,0.311
A6T,2.94
S12L,3.36
S2M,2.45
A6H,1.92
S2K,3.56
G10P,3.41
G11H,3.93
L7A,0.181
R5W,0.459
A6Q,6.66

# Block 4 — technique: RNA Bind-n-Seq; molecule type: RNA; sample: in vitro; concentration: not given; notes: RNA with constant flanks, ends assumed; relative to: input RNA pool; direction: higher = stronger binding
# Target: RING finger protein unkempt homolog, zinc fingers 1-6, GST-SBP tag (UNK, Homo sapiens, UniProt Q9C0B0, residues 30-357)
# UniProt Q9C0B0, sequence (30-357, looked up): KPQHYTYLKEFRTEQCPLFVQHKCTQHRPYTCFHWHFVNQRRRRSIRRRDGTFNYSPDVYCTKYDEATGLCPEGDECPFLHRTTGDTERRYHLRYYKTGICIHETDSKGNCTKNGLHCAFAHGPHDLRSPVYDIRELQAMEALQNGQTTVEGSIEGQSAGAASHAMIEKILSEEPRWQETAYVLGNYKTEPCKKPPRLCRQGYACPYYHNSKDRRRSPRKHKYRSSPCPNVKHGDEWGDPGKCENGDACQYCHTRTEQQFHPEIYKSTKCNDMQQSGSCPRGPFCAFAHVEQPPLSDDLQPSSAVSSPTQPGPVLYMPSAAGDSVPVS
# Constant ends, left off below: GGGAGUUCUACAGUCCGACGAUC … CAACAGAGGAUUGAGCAUCA
Oligonucleotide,bound/input enrichment
UUUGAUACAGUCAAAAGUGUUCUCGACAAAGACCGAAAAGAAGAUGAUACAAAUGAAUUUGUCCGUGCUGUGUGCUGGAGGGCACUACCAGAUGGGGAGUCCAAUGUGCUGAUUGCUGCU,0.344 ratio
AAACCAACUAAAAACAUGAUUAACAUCAACAGCCGCCUGCAGGAAGUCUUUGGCUGUGCCAUCCGGGCUGCAUAUCCAGACUUGGAGAACCCUCCCCUGAUCGUGACACCAAGUCAGCAG,0.266 ratio
UUGCCUGAAAAUGAAGAUGAAUUGGAGAGCACCAAUAGACGCUAUACCAAGAGAGACUGCCGCACUUUUCUCAGAACUAGCGAGACGGGCAUUGUGGAUCAGGUUAUGGUAACUCUCAAU,0.724 ratio
AACUGCAUCUGUGAUAUCGAUCACUGUUCCAACAUGGCACCCCUCUACAGUGACUCCUACUCCGUCUUCUGGGCCAUUUUCAACCUGGUGACCUUUGUGGUCAUGGUGGUUCUCUACGCU,0.164 ratio
GUGUUCUGUUUUAUUUUGUUUUUUCACUUAUUCCUCAUAACAGUUUGUGAAACCGGUAUGUCCGCCCUUUUAUGAAUUGGCCAGAGAGGAUGAGUGGUCGGCCUAGGUCAUAUGUCUAGG,0.387 ratio
GGGAACUCCACUCGGGGAACUCCUUUCCAAGCUGACCUCAGUUUUCUCACAAGAACCCAGUCCGCUGAUGUUUUAUUGUAAUUGUCUUAAUUUGCUAAGAACAAGUAAUAAGUAAAUUUU,0.683 ratio
UUGCCAUAUUAAUCAUCUUAGUUCCAUACACACUGAGACUUUAAAAGGGAAAAACCACUCCCGCAAAUAAUUGUCAAUUAUAAACCUGUAUGUAAAACAUUCUUGAAAACCUAGAGUUGG,0.322 ratio
CAUGGCCAUGGUAAAAUGGAACUUCCAGAUUACAGACAGUGGAAAAUUGAAGGGACGCCAUCCGAAACGGUGCAGAAGAAGCUUGCUGCCCGAGGGCUGAGGGAUCCAUGGGCUCGCAAU,0.217 ratio

# Mixed results
Substance,tested on,assay,system,conditions,scale,measurement,value
CC(C)(O)[C@H]1O[C@H]2CC[C@@]3(C)[C@@](O)(CC[C@H]4Cc5c([nH]c6ccccc56)[C@@]43C)C2=CC1=O,mouse MPNST tumor cells,"high-content nuclear imaging, measured: cell number",,"10 µM, 12 h, mean of 2 replicates","relative to: plate mean, higher = more cells",nuclei count,3.79 z-score
YHENWSATL,"HLA class I histocompatibility antigen, B alpha chain, allele B*15:09 (Homo sapiens, UniProt P01889)",peptide-MHC binding,peptide,concentration not given,,binding,active

# Some of these lines once more (block 4):
Oligonucleotide,bound/input enrichment
UUUGAUACAGUCAAAAGUGUUCUCGACAAAGACCGAAAAGAAGAUGAUACAAAUGAAUUUGUCCGUGCUGUGUGCUGGAGGGCACUACCAGAUGGGGAGUCCAAUGUGCUGAUUGCUGCU,0.344 ratio
AAACCAACUAAAAACAUGAUUAACAUCAACAGCCGCCUGCAGGAAGUCUUUGGCUGUGCCAUCCGGGCUGCAUAUCCAGACUUGGAGAACCCUCCCCUGAUCGUGACACCAAGUCAGCAG,0.266 ratio
UUGCCUGAAAAUGAAGAUGAAUUGGAGAGCACCAAUAGACGCUAUACCAAGAGAGACUGCCGCACUUUUCUCAGAACUAGCGAGACGGGCAUUGUGGAUCAGGUUAUGGUAACUCUCAAU,0.724 ratio
AACUGCAUCUGUGAUAUCGAUCACUGUUCCAACAUGGCACCCCUCUACAGUGACUCCUACUCCGUCUUCUGGGCCAUUUUCAACCUGGUGACCUUUGUGGUCAUGGUGGUUCUCUACGCU,0.164 ratio
GUGUUCUGUUUUAUUUUGUUUUUUCACUUAUUCCUCAUAACAGUUUGUGAAACCGGUAUGUCCGCCCUUUUAUGAAUUGGCCAGAGAGGAUGAGUGGUCGGCCUAGGUCAUAUGUCUAGG,0.387 ratio
GGGAACUCCACUCGGGGAACUCCUUUCCAAGCUGACCUCAGUUUUCUCACAAGAACCCAGUCCGCUGAUGUUUUAUUGUAAUUGUCUUAAUUUGCUAAGAACAAGUAAUAAGUAAAUUUU,0.683 ratio
UUGCCAUAUUAAUCAUCUUAGUUCCAUACACACUGAGACUUUAAAAGGGAAAAACCACUCCCGCAAAUAAUUGUCAAUUAUAAACCUGUAUGUAAAACAUUCUUGAAAACCUAGAGUUGG,0.322 ratio
CAUGGCCAUGGUAAAAUGGAACUUCCAGAUUACAGACAGUGGAAAAUUGAAGGGACGCCAUCCGAAACGGUGCAGAAGAAGCUUGCUGCCCGAGGGCUGAGGGAUCCAUGGGCUCGCAAU,0.217 ratio
